Measured values gathered from unrelated publications.
Protocols differ between the studies behind these lines. Values joined by “and” are separate records of one study, mostly repeats; a detail may differ. pEC50: −log10 of the molar value.
Organism: Schistosoma mansoni

CC(C)(C)NCC(SS(=O)(=O)O)c1ccccc1 (stereo not drawn)  female worms recovered (mice; 400 mg/kg single dose, dosed day 7, perfused 52): 10 worms per mouse and 15 worms per mouse and 24 worms per mouse and 14 worms per mouse
CC1=C(Cn2cc(CN3CCC(=O)CC3)nn2)C(=O)c2ccccc2C1=O  killing (adult worms; 10 µM, 48 h): 42.5%
[2H]C([2H])([2H])C1(C([2H])([2H])[2H])NC(=O)N(c2ccc(F)c(C(C)(F)F)c2)C1=O  worm burden reduction (adult, infected NMRI mice; oral, 100 mg/kg single dose): 100%
CC(C)NCC(SS(=O)(=O)O)c1ccccc1 (stereo not drawn)  worm burden reduction (infected mice; 100 mg/kg x4, dosed from day 11, perfusion day 25; relative to: vehicle): 46%
CC1=C(Cn2cc(CN3CCC(F)(F)CC3)nn2)C(=O)c2ccccc2C1=O  killing (adult worms; 10 µM, 24 h): 40.7%
[2H]C([2H])([2H])C1(C([2H])([2H])[2H])NC(=O)N(c2ccc(F)c(C(C)(F)F)c2)C1=O  ED50 (adult, infected mice; oral, single dose): 8 mg/kg and 7.8 mg/kg
CC(C)[C@@H](C)Nc1nc(-c2cccs2)nc(Cl)c1-c1c(F)cc(F)cc1F  pEC50 (motility; adult worms, ex vivo; 24 h): 6.27
CCCCNC(CCCC)CSS(=O)(=O)O (stereo not drawn)  total worms recovered (mice; daily x4, 100 mg/kg, from day 11, perfusion day 25): 65 worms per mouse and 66 worms per mouse and 64 worms per mouse
O=C(Nn1c(-c2cccc(Cl)c2)nc2ccccc2c1=O)c1ccccc1  worm burden reduction (infected mice; intraperitoneal, 50 mg/kg 1 times daily for 3 days, 72 h): 70%

A few entries again:
CC1=C(Cn2cc(CN3CCC(=O)CC3)nn2)C(=O)c2ccccc2C1=O  killing (adult worms; 10 µM, 48 h): 42.5%
